Results of several laboratories.
Every numbered part comes from another study and shows a few of its results, in no order. Substitutions count along the parent as printed.

Block 1
Target: CCNE1, cyclin fold, Cln2 fusion (human)
Technique: yeast growth competition, sequencing
Sample: yeast
Notes: strong parent motif
Reference: not given
Direction: higher = stronger binding
Measurement: normalised enrichment score
Parent: viral docking peptide; KGVKRKLFAEDSS
K6D: 1.32
V3M: 1.68
V3A: 7.7
E10D: 7.74
V3K: 0.585

Block 2
Target: RING finger protein unkempt homolog, zinc fingers 1-6, GST-SBP tag (UNK, Homo sapiens, UniProt Q9C0B0, residues 30-357)
Technique: RNA Bind-n-Seq
Form: RNA
Sample: in vitro
Concentration: not given
Notes: RNA with constant flanks, ends assumed
Reference: input RNA pool
Direction: higher = stronger binding
Measurement: bound/input enrichment
Target sequence (chain): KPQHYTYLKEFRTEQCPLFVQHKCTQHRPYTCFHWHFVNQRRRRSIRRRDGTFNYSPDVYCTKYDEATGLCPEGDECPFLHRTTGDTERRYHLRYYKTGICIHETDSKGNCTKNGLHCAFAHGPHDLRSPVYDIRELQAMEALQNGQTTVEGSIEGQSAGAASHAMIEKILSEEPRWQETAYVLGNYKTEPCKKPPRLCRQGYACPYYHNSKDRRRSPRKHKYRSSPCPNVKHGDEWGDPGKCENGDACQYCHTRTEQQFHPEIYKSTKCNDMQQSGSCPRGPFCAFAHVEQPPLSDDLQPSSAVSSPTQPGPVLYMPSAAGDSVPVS
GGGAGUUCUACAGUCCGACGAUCAAGAAAAUGCAUAUACAAAGUGCUGUGUCCAAAAUGAACCCUGGGGAGAAAGAACCCAUUCACCGAGGAACUACUGAAGUGAAUAUAGAUUCUGAAACUGUUCAUAGAAUGUUACUGAGUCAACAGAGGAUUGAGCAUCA: 0.316 ratio
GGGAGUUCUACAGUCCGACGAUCUUAGCUUUGUUAAAUGUAGCAACUCAGGGAGUUCAUUUAUGGGACUUGCAAGACAGAGUUUCCGUAAGAAAGUAUCAAGGUGUUACACAAGGGUUUUAUACAAUUCAUUCAUGUUUUGGACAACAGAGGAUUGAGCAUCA: 0.456 ratio
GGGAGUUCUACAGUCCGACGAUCAAGAAUUUCAAAGGUACUAUUGAAGAACUGGCUUCAAAUCAGUAUGUGAUUAAUGGAGAAGCCGCUAUUCUGGAUUCUACAACCAUUGAAAUCUCAGAGCUUCCCAUCCGAACGUGGACUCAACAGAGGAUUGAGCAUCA: 0.19 ratio
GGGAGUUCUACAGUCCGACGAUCAGUCCUCAACGUGUUCUAGCUUGUGAUCCUUCAAAGAUGGGUUAUGUGUUAAUGACCGGUACCCGAAAUGUUUACUUCUCUCUUUCCACUGAUCAGAGAAACAGGCAUUAAAGACAGAAUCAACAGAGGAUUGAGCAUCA: 0.249 ratio
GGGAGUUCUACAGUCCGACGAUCGAAUUGAUUAAAGAGAAACUCAUUUUUCCCUACGUGGAAUUGGAUCUACAUAGCUAUGAUUCCGGCACCGAGAAUCGUGAUGCCACCAACGACCAAGUCACCAAGGAUGCUGCAGAAGCUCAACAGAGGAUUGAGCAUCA: 0.261 ratio
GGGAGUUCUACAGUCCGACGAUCGGAAAGUAUGUGUAUGUAGUAACAGAACUUAUGAAAGGAGGUGAAUUGCUGGAUAAAAUUCUCCGACAAAAAUUUUUCUCUGAACGAGAGGCCAGUGCUGUCCUGUUCACUAUAACUAAACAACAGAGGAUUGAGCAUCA: 0.445 ratio
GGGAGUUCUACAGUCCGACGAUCAAAAGGAAAGAGCCAAAUAAAAGCAUCAAGCAUUGCACAGUUCUCUCCAAUAACACCGAUCAUCUCUUACUGAAUUUAACACUGUCUGAUAUCAUGGUCUCCCUGGCAAAUGCGUCAACUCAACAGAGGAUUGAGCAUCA: 0.0729 ratio
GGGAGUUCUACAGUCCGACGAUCAAAGCCCUGUGAAGGUCUACUGACCGCUCACUAUUGUCUGGUAUCUGUAAACACUUCUGUUCCGUCCUUUCAUGGUAUAAUUGAUGUUCUUUAAAACUGUCAGUGUAAAACAGGGCUUAUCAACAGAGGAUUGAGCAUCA: 0.197 ratio

Block 3
Target: UBE2A UBC core domain (UniProt P49459)
Chain of UniProt P49459 (whole entry, looked up): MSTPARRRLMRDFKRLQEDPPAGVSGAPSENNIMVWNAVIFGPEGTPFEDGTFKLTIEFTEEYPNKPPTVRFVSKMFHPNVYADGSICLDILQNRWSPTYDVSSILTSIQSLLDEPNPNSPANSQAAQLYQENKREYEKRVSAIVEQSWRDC
Technique: yeast two-hybrid
Sample: yeast
Notes: mostly zero background
Reference: not given
Direction: higher = stronger interaction
Measurement: lacZ reporter activity
B1: TRIM22 RING domain (UniProt Q8IYM9); chain VKVDIEKEVTCPICLELLTEPLSLDCGHSFCQACITAKIKESVIISRGESSCPVCQTRFQPGNLRP
B2: MKRN2 RING domain (UniProt Q9H000); chain FAFQASQDKVCSICMEVILEKASASERRFGILSNCNHTYCLSCIRQWRCAKQFENPIIKSCPECRVISEFVIPSV
B3: TRIM60 RING domain (UniProt Q495X7); chain ALVNLQEESSCPICLEYLKDPVTINCGHNFCRSCLSVSWKDLDDTFPCPVCRFCFPYKSFRR
B4: ANAPC11 RING domain (UniProt Q9NYG5); chain GICRMAFNGCCPDCKVPGDDCPLVWGQCSHCFHMHCILKWLHAQQVQQHCPMCRQEWKFKE
B5: MYCBP2 RING domain (UniProt O75592); chain TSLKQDADDMCMICFTEALSAAPAIQLDCSHIFHLQCCRRVLENRWLGPRITFGFISCPICKNKINHIVLKD
RYRQMEERITCPICIDSHIRLVFQCGHGACAPCGSALSACPICRQPIRDRIQIF (MIB2 RING domain (UniProt Q96AX9)): 0
YPEEVDDDLICHICLQALLDPLDTPCGHTYCTLCLTNFLVEKDFCPMDRKPLVLQHCKK (LNX1 RING domain (UniProt Q8TBB1)): 0
B1 (TRIM22 RING domain): 0
B2 (MKRN2 RING domain): 0
B3 (TRIM60 RING domain): 0
LDAASGHPLVCPLCHGQYERPCLLDCFHDFCTGCLRGRATDGRLSCPLCQHQTLVKGPSG (Rnf207 RING domain (UniProt Q3V3A7)): 0
FVKTVEDKYKCEKCHLVLCSPKQTECGHRFCESCMAALLSSSSPKCTACQESIVKDKVF (TRAF3 RING domain (UniProt Q13114)): 0
AEADPLGRFTCPVCLEVYEKPVQVPCGHVFCSACLQECLKPKKPVCGVCRSALAPGVRAV (RNF114 RING domain (UniProt Q9Y508)): 0
B4 (ANAPC11 RING domain): 0
PEELAVNNDDCAICWDSMQAARKLPCGHLFHNSCLRSWLEQDTSCPTCRMSLNIADNNR (AMFR RING domain (UniProt Q9UKV5)): 0
B5 (MYCBP2 RING domain): 0

Single results of other studies
indirubin-3′-monoxime
Gini score (human protein kinase panel; 0.5 µM, 300 kinases; higher = more selective): 0.56

A few entries again (block 3):
B2 (MKRN2 RING domain): 0
B3 (TRIM60 RING domain): 0
LDAASGHPLVCPLCHGQYERPCLLDCFHDFCTGCLRGRATDGRLSCPLCQHQTLVKGPSG (Rnf207 RING domain (UniProt Q3V3A7)): 0
